Measurements gathered from unrelated publications.
Lines come from different studies, so protocols differ. Several values in a cell are separate wells, animals, samples, runs or records. ± marks the error that the study gave.
UCHL1: Ubiquitin carboxyl-terminal hydrolase isozyme L1 (UCHL1, Homo sapiens, UniProt P09936)
Sequence of UniProt P09936 (whole entry, looked up): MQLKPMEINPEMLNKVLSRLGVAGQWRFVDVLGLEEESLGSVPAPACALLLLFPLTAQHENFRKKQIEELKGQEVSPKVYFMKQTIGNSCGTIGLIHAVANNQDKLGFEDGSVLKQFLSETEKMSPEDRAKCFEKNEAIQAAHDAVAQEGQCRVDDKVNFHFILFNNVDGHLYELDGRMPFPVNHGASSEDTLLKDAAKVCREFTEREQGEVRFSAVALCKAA

CCOC(=O)c1nn(-c2cccc(Cl)c2)/c(=N/N=C(\C)c2ccc(NC(=O)c3ccc(Cl)cc3)cc2)s1 — cytotoxicity (MCF7; MTT; 0.625 µM): 96.1%
CC(C)(C)c1cc(O)ccc1O — point of departure (HepG2; extracellular flux, item: oxygen consumption rate; 1 h, distribution mode 1): 0.0115 µM
CCc1cnc(N2CCC(c3nc(COc4ccc(-n5cnnn5)cc4)cs3)CC2)nc1 — log2 fold change (HEK293T; RNA-seq, item: CEBPB mRNA; 10 µM, 6 h; relative to: vehicle): 0.758
FC(F)(F)COCC(F)(F)F — viability (MCF-10A; CellTiter-Glo; concentration not given; relative to: normalised, mean of replicates): 109%
Cc1ccc(C2C(C#N)=C(N)N(c3cccnc3Cl)C3=C2C(=O)CCC3)s1 (centres unmarked) — labelling (UCHL1; covalent, intact protein LC-MS; 12.5 µM): 12.6%
CN(C)C(=O)c1cc2cnc(Nc3ccc(N4CCNCC4)cn3)nc2n1C1CCCC1 — CD11b surface level (human neutrophils; flow cytometry; 1 to 10 µM, with: fMLF): decreased
Cn1cc(-c2ccc(-c3cncc(Cl)c3N3CCC4(CCNC4=O)CC3)cc2)cn1 — log2 fold change (COLO 205; gene expression, microarray, item: NAIP mRNA; concentration not given, 2 h; relative to: untreated cells): 2.6
O=C(/C=C/C=C/C=C/C1CCCCC1)NC1=C[C@@](O)(/C=C/C=C/C=C/C(=O)NC2=C(O)CCC2=O)[C@@H]2O[C@@H]2C1=O — GI50 (WM-1799; cell growth, CellTiter-Glo; 78 h): 8.63 µM
CCCN1CCN(c2ccc3nc(-c4ccc5nc(-c6cc(OC)ccc6OC)[nH]c5c4)[nH]c3c2)CC1 — growth percent (OVCAR-4; SRB; 10 µM, 48 h): 81.1%
Nc1cccc2c1C(=O)N(C1CCC(=O)NC1=O)C2=O (centres unmarked) — surface marker level (RPMI-8226; flow cytometry, item: CD294; concentration not given; relative to: comparator compound alone): 188%
CCCNC(=O)[C@H]1O[C@@H]1C(=O)N[C@H](C(=O)N1CCC[C@H]1C(=O)OC)[C@@H](C)CC — phototoxicity index (MCF-10A; MTT; 72 h; relative to: dark EC50 over light EC50): 1
O=C(Nc1nnc2n3c(=S)[nH][nH]c3nc(-c3ccc(Cl)cc3)c1-2)c1ccccc1 — growth percent (MDA-MB-231/ATCC; NCI60 SRB; 10 µM): 67.9%
COc1ccc(NC(=S)N/N=C/c2cccc3cc4ccccc4nc23)cc1 — G1 phase cells (HeLa; PI flow cytometry; IC25, 48 h, with: N-acetylcysteine): 55 ± 0.9%
N#Cc1ccc(C[C@@H](Nc2c(Nc3ccc(F)cc3)c(=O)c2=O)C(=O)N2CCc3ccccc32)cc1 — IC50 (human neutrophils; calcium mobilization, desensitization; with: standard agonist): > 50 µM
CCN(Cc1ccc(C#CCCO)cc1)CC1CCCN(CCc2cccc(F)c2)C1 (centres unmarked) — inhibition (Trypanosoma cruzi; reporter translation, Renilla luciferase mRNA translation; cell-free extract; 40 µM; relative to: DMSO): -15.9%
CC#CC(=O)NC1CCN(C(=O)c2noc(C)c2Cn2cc(Cl)cn2)C1 (centres unmarked) — labelling (UCHL1; covalent, intact protein LC-MS; 12.5 µM): 9.32%
CSCC[C@H](NC(=O)[C@H](Cc1ccc(OS(=O)(=O)O)cc1)NC(=O)[C@@H](N)CC(=O)O)C(=O)NCC(=O)N[C@@H](Cc1c[nH]c2ccccc12)C(=O)N[C@@H](CCSC)C(=O)N[C@@H](CC(=O)O)C(=O)N[C@@H](Cc1ccccc1)C(N)=O — cAMP accumulation (HEK293T control virus; agonist, GloSensor cAMP; 0.001024 nM, no receptor expressed; higher = more cAMP): 0.139 a.u.
O=S(=O)(O)O — Km (human neutrophils; anion exchange, substrate, sulfate influx; pH 7.4, glucuronate medium, with: Cl-): 12.5 mM
Cc1cc(C)nc(SCC(=O)Nc2ncc(Cc3cccc(OCc4cn(Cc5ccc(OCCN6CCOCC6)cc5)nn4)c3)s2)n1 — inhibition (PC-3M-luc; colony formation, colony forming; 25 µM): 94.2 ± 2.6%
CCC(=O)N1CCC(COCC(=O)N2CCN(c3nc(-c4cnc(N)nc4C(F)F)nc(N4CCOC[C@@H]4C)n3)CC2)CC1 — GR50 (MDA-MB-453; resazurin growth rate inhibition; 72 h): 53.4 nM
COc1cnc2cccc(N3CCc4c(cc(Cn5ccnc5C)cc4-c4cn(C)nc4C(F)(F)F)C3=O)c2c1 — EC50 (COV362; cell growth, inhibitor; 120 h): 15.7 µM
Cc1nn(-c2nc3c(F)cc(F)cc3s2)c(O)c1C(c1ccc(C(F)(F)F)cc1)c1c(C)nn(-c2nc3c(F)cc(F)cc3s2)c1O — phospho-TBK1/TBK1 ratio (RAW-ISG; western blot; 10 µM, with: HT-DNA; relative to: vehicle): 0.846 and 1.04 and 0.832
Cn1c(Nc2nc3ccc(C(F)(F)F)cc3s2)nc2cc(C(=O)NCCOCCO)ccc21 — fold change (SH-SY5Y; RNA-seq, item: KLF6 mRNA; 5 µM, 5 h; relative to: untreated cells): 1.86

For quick reference, copied from above:
O=C(/C=C/C=C/C=C/C1CCCCC1)NC1=C[C@@](O)(/C=C/C=C/C=C/C(=O)NC2=C(O)CCC2=O)[C@@H]2O[C@@H]2C1=O — GI50 (WM-1799; cell growth, CellTiter-Glo; 78 h): 8.63 µM
CCCN1CCN(c2ccc3nc(-c4ccc5nc(-c6cc(OC)ccc6OC)[nH]c5c4)[nH]c3c2)CC1 — growth percent (OVCAR-4; SRB; 10 µM, 48 h): 81.1%
Nc1cccc2c1C(=O)N(C1CCC(=O)NC1=O)C2=O (centres unmarked) — surface marker level (RPMI-8226; flow cytometry, item: CD294; concentration not given; relative to: comparator compound alone): 188%
